# Measurements of several laboratories.
# Each numbered part is a random draw from the data of one study; scales do not carry over between parts. Substitutions count along the parent as printed.

# Sample 1 — technique: DHFR PCA, deep sequencing; medium: yeast; together with: (+)-ABA 200 µM; reference: wild-type fitted maximum; reading: higher = stronger binding
# Target: ABI1, truncated, D143A, DHFR fusion (Arabidopsis thaliana)
# Notes: methotrexate growth selection, single substitutions
# Starting sequence: PYL1, truncated, DHFR fusion (Arabidopsis thaliana); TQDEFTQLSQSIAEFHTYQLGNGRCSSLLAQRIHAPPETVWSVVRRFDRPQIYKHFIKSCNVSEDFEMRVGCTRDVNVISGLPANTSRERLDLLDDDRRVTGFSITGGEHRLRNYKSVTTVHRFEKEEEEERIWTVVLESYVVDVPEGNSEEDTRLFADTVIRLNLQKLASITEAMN; partner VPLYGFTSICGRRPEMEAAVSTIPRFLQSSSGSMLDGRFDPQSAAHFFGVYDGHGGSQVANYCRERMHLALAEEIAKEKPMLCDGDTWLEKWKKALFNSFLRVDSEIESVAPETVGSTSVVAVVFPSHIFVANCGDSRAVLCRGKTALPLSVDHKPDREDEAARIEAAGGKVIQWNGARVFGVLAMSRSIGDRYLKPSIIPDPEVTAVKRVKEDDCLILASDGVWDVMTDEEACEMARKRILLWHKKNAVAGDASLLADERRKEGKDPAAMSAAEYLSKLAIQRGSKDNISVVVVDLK
Substitution,relative binding score
A13T,95.6%
D144P,67.8%
T101K,2.18%
I105V,105%
T1Q,99.3%
F103C,-1.23%
K58S,97.6%
Q19E,105%
R111F,53%
R74D,10.6%
F66N,87.3%
F56L,99.2%
N114E,58%
Q10V,88.8%
E151A,104%
A13N,98.4%

# Sample 2 — technique: protein-binding microarray; molecule type: double-stranded DNA, one strand shown; medium: in vitro; concentration: 2540 nM top; notes: 60-bp whole probe; together with: salmon DNA 0.4 mg/ml; reference: random background probes; reading: higher = stronger binding; shared flanks, not repeated: GCCTAGCAC … GTCTTGATTCGCTTGACGCTGCTG
# Target: Interferon regulatory factor 3, full length, phosphomimetic (IRF3, Homo sapiens, UniProt Q14653, residues 1-427, S386D/S396D/S398D/S402D/T404D/S405D)
# Chain of UniProt Q14653 (whole entry, unmodified, looked up): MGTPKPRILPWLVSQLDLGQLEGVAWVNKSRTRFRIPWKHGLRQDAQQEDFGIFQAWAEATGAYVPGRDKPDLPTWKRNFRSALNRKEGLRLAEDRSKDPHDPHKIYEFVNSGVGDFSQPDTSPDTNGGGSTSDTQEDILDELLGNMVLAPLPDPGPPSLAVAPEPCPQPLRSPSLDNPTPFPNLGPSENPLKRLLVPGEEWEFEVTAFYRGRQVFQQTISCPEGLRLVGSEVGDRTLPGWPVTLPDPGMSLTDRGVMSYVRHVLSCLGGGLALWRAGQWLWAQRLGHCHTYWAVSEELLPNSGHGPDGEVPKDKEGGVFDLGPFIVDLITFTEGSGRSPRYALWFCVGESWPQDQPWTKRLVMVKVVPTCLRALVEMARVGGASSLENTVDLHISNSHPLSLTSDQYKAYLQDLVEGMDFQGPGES
Oligonucleotide,fitted relative affinity [z-score]
CTAGATTTCAGTTTCGATTAGTGCTAG,5.94
TTAGGACTGGGGCTTCGGTTAGTGCTA,-1.23
GACGGTATCTACACTGGGGACGTGCTA,0.165
TCAGTTTCCTTCCTCTTACTGTGCTAG,8.78
GCCGATATCAGTATCGAGACGTGCTAG,1.81
TTAGATTTCGGGTATTGATTAGTGCTA,0.976
TCAAATCCCACATTTGATACTGTGCTA,0.484
TTAGGTATCGGGAATGGGTTAGTGCTA,0.494
CACGGTTTCGGTCTCGGGACGTGCTAG,7.75
TTAGGACTGGGACCGGGTTAGTGCTAG,-0.749
CGATTACAGCTAGGTAGTGGGTGCTAG,1.84
GCCACCGGTCTCCATGGGTCGTGCTAG,0.328
GAAGATTTCGATTACAAAAAGTGCTAG,2.73
TTCGGTATCGGTTTCGGTTAGTGCTAG,8.4
GTAGGTTTCCTTTTCCTTTAGTGCTAG,11.6
TTAGGACTGGGGTATCAGTTAGTGCTA,-0.559
TTAGGTTTCCTACTGCTTTCGTGCTAG,4.35
TCAAATTTTTTTTCTAAACTGTGCTAG,0.549
CAGGTTCTCTTTTATTTTTTGTGCTAG,2.78
TTAGGACTGGGGTAGCGGTTAGTGCTA,-1.02
GACAGTTTCGGGTATCGGGACGTGCTA,4.65
GACGATTTCGGGTCTGGAGACGTGCTA,2.44
GACGGTTTCGGTTTCGGGTCGTGCTAG,11.2
GACGATCTAAGTTTCGAGACGTGCTAG,1.82

# Sample 3 — target: CCNE1, cyclin fold, Cln2 fusion (human); technique: yeast growth competition, sequencing; medium: yeast; notes: weak parent motif; reference: not given; reading: higher = stronger binding
# Starting sequence: KIF20B docking peptide (human); KRAKRKLYTSEIS
Substitution,normalised enrichment score
KRAKRKAYTSEIS [L7A],0.228
ARAKRKLYTSEIS [K1A],0.683
KRAARKLYTSEIS [K4A],0.371
KRAKRKLATSEIS [Y8A],-0.352
KRAKRKLYTSAIS [E11A],0.357
KRAKRALYTSEIS [K6A],0.241

# Sample 4 — technique: RNA Bind-n-Seq; molecule type: RNA; medium: in vitro; concentration: 365 nM; reference: no-protein control; reading: higher = stronger binding
# Target: RNA binding protein fox-1 homolog 2, RRM domain, GST-SBP tag (RBFOX2, Homo sapiens, UniProt O43251-10, residues 100-194)
# Notes: natural RNA segment, single round, ends assumed
# Target sequence (chain): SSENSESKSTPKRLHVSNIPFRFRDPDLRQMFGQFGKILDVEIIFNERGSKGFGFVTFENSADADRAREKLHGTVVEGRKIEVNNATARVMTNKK
Oligonucleotide,RBNS enrichment (R)
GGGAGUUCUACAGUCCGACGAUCUGUGUGUAUUUGUUCACGAGCACAAUAGCUCCCAUGGGGGUCUGCACAUGCAGGUGUCCACCAGCAUAGCCUGCCUGAGAUAGUGUCAUUCCUGGUUCUGGGGAGAAGGGUGGAAUUCUCGGGUGCCAA,1.17
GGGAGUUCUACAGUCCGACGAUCUGCUCUCAGCCAGCACCACUGCCCGCUGAUCUCCGUGAUGAUUAACCUGCUGCUUCCUUACACAAGGCCUGCCCAGGCUGAAGCUCCUGUUUGACCACUCCCCCCCCCCCUGGAAUUCUCGGGUGCCAA,0.627
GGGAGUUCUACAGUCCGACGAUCUCCAGCCAUGUCUGACAGUGAGCAUGCUUUGGUGUGGUCUUCACUGCUUUUGGUUUUGCUUCUGAUCUUGUGUUCUAAGGUACUCAGUGAAUCCUGGAUUCUGAGUAAGUUGGAAUUCUCGGGUGCCAA,0.624
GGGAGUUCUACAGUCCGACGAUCCCCUUUUGUCAAAAAGGUAGAUAUUCAUAAUUGUACAUUCAGCAUUGUAAAUACCAUAUGAAAUCCUUUUUGAUUAAAGCUAUUCAAAAUAAAAAAUUUUAAUGAAUUAAUGGAAUUCUCGGGUGCCAA,1.43
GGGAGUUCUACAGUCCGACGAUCCCUUGCUCAGCCAAGCUUGUCAGCAGCCUGUAGGAUCAUGGUUCAAGUGACAAUAAAGGAAGAAAGUAGAACACUCUUGCUUCUGCCUCUUCAGUUGGGAUCCAGUUAGUUGGAAUUCUCGGGUGCCAA,0.383
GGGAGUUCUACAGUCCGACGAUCUCUCAUGCUCUCCGCCCUGUUCUAUCUGGCACUUCCCAGGCACAGAGGCCCCUUCAGGUUCCUGGGUGCUCUUCAAUGGCCAAAACUCGAUUUCAUGUCUGGGAGCCUGGUGGAAUUCUCGGGUGCCAA,0.413
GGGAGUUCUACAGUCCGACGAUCCAAAAUCCUGCAGAAUGUAAGUAAGCUCUGCUUUAUAAGAUGGGUUCACCUUCAUCGCAGACUGAAAGUUUCAGUUUUUAUUUUUUUCAGAAAGCACGAAAAAUUAUUUAUGGAAUUCUCGGGUGCCAA,0.745
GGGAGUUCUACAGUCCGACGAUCAGAAAGUGCUCAUUUAUAAUGUGUAUUCUGUGCAGCUGUUCUCAGACAAGACCGGAUCUUGUCAUCUUACCUUUUGCUUUACAAAAAAGGCCUGUUGAAGUCAAUGCUGUUGGAAUUCUCGGGUGCCAA,0.292
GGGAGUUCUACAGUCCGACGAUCAGAGGUCCGUGGGGGAGGCCGUGGGCAAAGGUGUCCCGAGCUGCCAUGUUUAGGAAACACACUGUACCCUGCUCCCAGCAUCACAAGGCACUUGUCUACAAGUGUGUCCCUGGAAUUCUCGGGUGCCAA,1.49
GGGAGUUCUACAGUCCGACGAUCGCCCUUCAAUGCCCCCAAGUGGCCCAGAACUUGGGGAGCCAGUUCACCCACGGGUGGUCCAGGUCACGACUCUGCACGCCCUUAGGCCAGGUCAGCUGCGAGGGUCACAGUGGAAUUCUCGGGUGCCAA,0.475
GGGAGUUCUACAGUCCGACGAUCCUGCUCAGCACCCCGCCUGGUGUGGGCCUGGUCUCAGCAGCGGCUGCGGCUGUGGCAGCCUCCAUCUCCAGCAAGUCUCCUGGCCUCUCCUCCUCAUCCUCUUCAUCCUCUGGAAUUCUCGGGUGCCAA,1.18
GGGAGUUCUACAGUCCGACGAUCUCUUCCCUGAUCCCACCAUCCUACCUACGCCCCCCCUCCCCUCAGCCCUAGUCUCCUCCAUUGACAGUCAUCCAUCUCUGCCUAAGGGACAAAGAAAUCCUUCUACCUGAUGGAAUUCUCGGGUGCCAA,0.694

# Sample 5 — technique: protein binding microarray; molecule type: double-stranded DNA, one strand shown; medium: in vitro; concentration: not given; reference: not given; reading: higher = stronger binding
# Target: Histone acetyltransferase KAT6A, winged helix 1, GST fusion (KAT6A, Homo sapiens, UniProt Q92794, residues 1-85)
# Notes: 8-mer, flanks averaged, mean of 2 arrays, mostly near background
# Target sequence (chain): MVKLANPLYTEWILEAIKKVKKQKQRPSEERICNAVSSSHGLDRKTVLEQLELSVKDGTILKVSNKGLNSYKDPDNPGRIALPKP
Oligonucleotide,E-score
ATCGTGAC,0.0368
TAGATTAA,-0.0114
TACCCTCA,-0.205
ACATCAGT,-0.183
AACTAACT,-0.136
TCATAGGA,-0.218
TTAGAAAA,-0.226
GGCTCCTA,-0.0366
ACGCTAAT,0.192
CGAAGACG,0.125
CGATCCCA,-0.0468
ACTTTGCT,-0.123
GTACTAAA,-0.0676
GATCCTAC,-0.152
CCCTATGA,-0.0747
ACGCATTC,0.167
ACGATTAA,0.0612
CGTTGGAG,0.0396

# For quick reference, copied from above (sample 2):
Oligonucleotide,fitted relative affinity [z-score]
GACAGTTTCGGGTATCGGGACGTGCTA,4.65
CTAGATTTCAGTTTCGATTAGTGCTAG,5.94
GAAGATTTCGATTACAAAAAGTGCTAG,2.73
TTAGGACTGGGGTATCAGTTAGTGCTA,-0.559
CAGGTTCTCTTTTATTTTTTGTGCTAG,2.78
TTAGGTATCGGGAATGGGTTAGTGCTA,0.494
TCAGTTTCCTTCCTCTTACTGTGCTAG,8.78
TTAGGTTTCCTACTGCTTTCGTGCTAG,4.35
TTCGGTATCGGTTTCGGTTAGTGCTAG,8.4
TTAGGACTGGGGTAGCGGTTAGTGCTA,-1.02
